Assay results collected from several papers.
Protocols differ between the studies behind these lines.
Target: Serine/threonine-protein kinase TBK1 (TBK1, Homo sapiens, UniProt Q9UHD2)
One construct used (Q9UHD2 1-729): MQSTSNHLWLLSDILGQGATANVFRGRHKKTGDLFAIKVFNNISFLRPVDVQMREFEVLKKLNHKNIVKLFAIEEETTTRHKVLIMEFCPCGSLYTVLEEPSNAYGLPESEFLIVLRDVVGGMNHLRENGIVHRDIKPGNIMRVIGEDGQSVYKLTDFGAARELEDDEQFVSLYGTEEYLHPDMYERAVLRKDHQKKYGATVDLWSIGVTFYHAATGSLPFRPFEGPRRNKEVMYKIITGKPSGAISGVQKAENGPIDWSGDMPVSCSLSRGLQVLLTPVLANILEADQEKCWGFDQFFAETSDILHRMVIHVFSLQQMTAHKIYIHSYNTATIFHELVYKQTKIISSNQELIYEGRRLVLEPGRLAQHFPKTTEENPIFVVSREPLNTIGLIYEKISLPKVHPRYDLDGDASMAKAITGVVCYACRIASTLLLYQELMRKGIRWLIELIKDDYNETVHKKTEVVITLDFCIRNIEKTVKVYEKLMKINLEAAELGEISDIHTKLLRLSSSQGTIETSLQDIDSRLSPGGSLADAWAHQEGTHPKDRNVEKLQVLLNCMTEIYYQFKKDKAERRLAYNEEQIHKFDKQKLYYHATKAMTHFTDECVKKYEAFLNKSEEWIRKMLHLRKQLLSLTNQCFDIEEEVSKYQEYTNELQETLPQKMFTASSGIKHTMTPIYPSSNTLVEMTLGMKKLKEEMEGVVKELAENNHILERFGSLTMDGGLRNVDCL

COc1cc(N2CCN(C)CC2)ccc1Nc1nc(N)n(C(=S)NCc2c(Cl)cccc2Cl)n1 gave a remaining activity of 12% (enzyme activity; 10 µM; relative to: control).
For C=CC(=O)N1CCC(COCC(=O)N2CCN(c3nc(-c4cnc(N)nc4C(F)F)nc(N4CCOC[C@@H]4C)n3)CC2)CC1, the remaining binding was 100% (KINOMEscan; 1 µM).
For Cn1cc(-c2cnc3ccc(NC(=O)Nc4ccc(F)c(Br)c4)cc3n2)cn1, the inhibition was 10.4% (kinase binding, KiNativ profiling, measured: Lys1 peptide; PANC-1 lysate; 2.5 µM).
COc1cc(F)ccc1-c1ncnc(Nc2cccc(C[S@](C)(=N)=O)c2)n1 has a remaining activity of 52% (kinase activity; 10 µM, together with: 10 µM ATP).
The remaining activity of O=C1NC(=O)/C(=C/c2ccc(-c3ccc(F)cc3O)o2)S1 is reported as 70% (enzyme activity; 10 µM).
CNc1ncc2c(/C=C/C(=O)N3CCC(OC)CC3)nn(Cc3cccc(C(F)(F)F)c3)c2n1 has a remaining activity of 114% (kinase activity, inhibitor; 1 µM; relative to: untreated control).
Cc1cc(Nc2cc(N3CCN(C)CC3)nc(Sc3ccc(NC(=O)C4CC4)cc3)n2)[nH]n1 gave a remaining activity of 94% (kinase activity, KinaseProfiler; 0.03 µM, species human; relative to: control).
For CC[C@@H]1[C@H](F)C(=O)N[C@@H]1COc1nccc2cc(C(N)=O)c(OC)cc12, the inhibition was -7.8% (ATP-site probe binding, ActivX profiling; THP-1 cell lysate; 0.04 mM, Lys1 site).

Excerpt of the above:
CNc1ncc2c(/C=C/C(=O)N3CCC(OC)CC3)nn(Cc3cccc(C(F)(F)F)c3)c2n1 has a remaining activity of 114% (kinase activity, inhibitor; 1 µM; relative to: untreated control).
